{"data": "Experimental data of several laboratories", "OPRD1": "Delta-type opioid receptor (OPRD1, Homo sapiens, UniProt P41143)", "TMPRSS2": "Transmembrane protease serine 2 (TMPRSS2, Homo sapiens, UniProt O15393)", "note": "Lines come from different studies, so protocols differ.", "sequence of UniProt O15393 (whole entry, looked up)": "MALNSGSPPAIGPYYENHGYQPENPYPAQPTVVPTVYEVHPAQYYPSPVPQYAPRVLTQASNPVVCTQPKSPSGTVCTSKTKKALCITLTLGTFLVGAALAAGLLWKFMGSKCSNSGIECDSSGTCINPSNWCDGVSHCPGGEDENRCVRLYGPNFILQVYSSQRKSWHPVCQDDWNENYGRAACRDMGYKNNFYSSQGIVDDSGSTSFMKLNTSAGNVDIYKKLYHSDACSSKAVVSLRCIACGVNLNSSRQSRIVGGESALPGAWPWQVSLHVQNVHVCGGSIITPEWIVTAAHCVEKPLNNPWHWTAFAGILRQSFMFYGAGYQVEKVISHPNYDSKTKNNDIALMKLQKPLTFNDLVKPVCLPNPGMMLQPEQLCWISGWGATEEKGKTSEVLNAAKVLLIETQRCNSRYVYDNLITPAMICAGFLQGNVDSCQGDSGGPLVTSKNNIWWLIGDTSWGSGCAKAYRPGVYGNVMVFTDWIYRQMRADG", "sequence of UniProt P41143 (whole entry, looked up)": "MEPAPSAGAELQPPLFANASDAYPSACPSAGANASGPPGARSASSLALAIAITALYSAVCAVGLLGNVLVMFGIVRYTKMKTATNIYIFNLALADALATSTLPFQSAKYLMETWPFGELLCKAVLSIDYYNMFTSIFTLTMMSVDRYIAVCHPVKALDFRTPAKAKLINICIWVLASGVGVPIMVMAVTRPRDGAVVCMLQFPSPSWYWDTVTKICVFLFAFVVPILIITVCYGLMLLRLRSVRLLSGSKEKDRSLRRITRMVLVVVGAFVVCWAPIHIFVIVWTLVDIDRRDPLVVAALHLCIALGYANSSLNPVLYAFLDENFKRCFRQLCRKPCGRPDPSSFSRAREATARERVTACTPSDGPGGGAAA", "sequence of UniProt P28335 (whole entry, looked up)": "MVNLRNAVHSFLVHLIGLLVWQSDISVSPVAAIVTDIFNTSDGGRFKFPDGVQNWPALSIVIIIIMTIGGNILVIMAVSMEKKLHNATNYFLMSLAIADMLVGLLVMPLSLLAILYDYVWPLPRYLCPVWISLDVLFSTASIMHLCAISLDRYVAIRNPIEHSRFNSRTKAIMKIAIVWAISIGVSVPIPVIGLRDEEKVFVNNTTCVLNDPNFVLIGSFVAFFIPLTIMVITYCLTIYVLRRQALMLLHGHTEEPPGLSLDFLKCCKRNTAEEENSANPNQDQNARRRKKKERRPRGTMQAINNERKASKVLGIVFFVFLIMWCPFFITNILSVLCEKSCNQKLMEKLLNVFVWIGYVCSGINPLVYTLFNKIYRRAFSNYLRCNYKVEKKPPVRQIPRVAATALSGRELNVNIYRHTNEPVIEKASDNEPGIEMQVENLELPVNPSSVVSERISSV", "sequence of UniProt Q9UKI8 (whole entry, looked up)": "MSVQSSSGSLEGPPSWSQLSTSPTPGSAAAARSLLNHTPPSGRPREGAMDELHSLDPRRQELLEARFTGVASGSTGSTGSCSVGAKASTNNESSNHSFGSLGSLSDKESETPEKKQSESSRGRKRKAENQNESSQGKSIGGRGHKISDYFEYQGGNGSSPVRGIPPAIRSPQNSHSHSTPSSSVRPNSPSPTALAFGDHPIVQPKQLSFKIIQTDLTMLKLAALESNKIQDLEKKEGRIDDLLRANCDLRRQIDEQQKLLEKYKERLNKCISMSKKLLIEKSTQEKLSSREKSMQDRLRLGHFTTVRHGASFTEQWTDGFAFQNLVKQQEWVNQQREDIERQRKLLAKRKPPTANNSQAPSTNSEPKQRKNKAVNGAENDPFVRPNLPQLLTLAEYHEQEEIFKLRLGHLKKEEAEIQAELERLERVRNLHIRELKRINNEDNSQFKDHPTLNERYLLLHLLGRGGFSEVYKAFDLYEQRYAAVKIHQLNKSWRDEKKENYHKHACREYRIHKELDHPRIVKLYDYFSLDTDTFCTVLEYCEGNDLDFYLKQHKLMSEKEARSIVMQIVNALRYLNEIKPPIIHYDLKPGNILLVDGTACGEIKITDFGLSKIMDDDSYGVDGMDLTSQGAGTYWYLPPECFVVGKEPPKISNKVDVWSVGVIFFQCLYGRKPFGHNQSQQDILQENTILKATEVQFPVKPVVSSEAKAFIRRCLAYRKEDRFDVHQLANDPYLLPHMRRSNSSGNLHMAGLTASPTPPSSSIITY", "sequence of UniProt Q15059 (whole entry, unmodified, looked up)": "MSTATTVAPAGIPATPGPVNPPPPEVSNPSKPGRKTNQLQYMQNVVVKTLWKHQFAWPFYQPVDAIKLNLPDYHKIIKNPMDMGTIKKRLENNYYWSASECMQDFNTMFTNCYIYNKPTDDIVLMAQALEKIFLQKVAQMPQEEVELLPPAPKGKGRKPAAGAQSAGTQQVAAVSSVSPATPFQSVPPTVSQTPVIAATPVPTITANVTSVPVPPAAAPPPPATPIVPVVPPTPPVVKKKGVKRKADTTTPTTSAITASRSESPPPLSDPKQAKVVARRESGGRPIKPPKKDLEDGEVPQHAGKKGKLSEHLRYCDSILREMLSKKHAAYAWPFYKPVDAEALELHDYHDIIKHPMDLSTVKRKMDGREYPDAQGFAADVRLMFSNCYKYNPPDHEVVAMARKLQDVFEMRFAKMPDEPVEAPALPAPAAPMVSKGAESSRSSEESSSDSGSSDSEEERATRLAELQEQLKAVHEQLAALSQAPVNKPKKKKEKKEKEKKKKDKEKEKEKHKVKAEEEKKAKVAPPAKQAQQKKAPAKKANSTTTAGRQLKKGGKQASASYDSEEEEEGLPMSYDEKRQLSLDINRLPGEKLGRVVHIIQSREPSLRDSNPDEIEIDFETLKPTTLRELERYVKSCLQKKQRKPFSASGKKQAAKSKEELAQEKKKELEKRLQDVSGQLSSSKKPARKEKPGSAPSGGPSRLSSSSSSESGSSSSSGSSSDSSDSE", "sequence of UniProt Q9UEE5 (whole entry, looked up)": "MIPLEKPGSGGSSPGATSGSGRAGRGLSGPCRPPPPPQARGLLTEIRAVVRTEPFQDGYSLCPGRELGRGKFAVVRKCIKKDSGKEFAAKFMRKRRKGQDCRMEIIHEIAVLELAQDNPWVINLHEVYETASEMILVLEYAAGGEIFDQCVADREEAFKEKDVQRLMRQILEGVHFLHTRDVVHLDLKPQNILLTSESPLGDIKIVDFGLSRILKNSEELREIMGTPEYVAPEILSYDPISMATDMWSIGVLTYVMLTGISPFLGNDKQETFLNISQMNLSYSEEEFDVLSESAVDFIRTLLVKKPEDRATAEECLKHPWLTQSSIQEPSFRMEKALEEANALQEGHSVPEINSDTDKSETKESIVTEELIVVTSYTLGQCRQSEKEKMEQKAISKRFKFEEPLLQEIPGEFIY", "sequence of UniProt P41144 (whole entry, looked up)": "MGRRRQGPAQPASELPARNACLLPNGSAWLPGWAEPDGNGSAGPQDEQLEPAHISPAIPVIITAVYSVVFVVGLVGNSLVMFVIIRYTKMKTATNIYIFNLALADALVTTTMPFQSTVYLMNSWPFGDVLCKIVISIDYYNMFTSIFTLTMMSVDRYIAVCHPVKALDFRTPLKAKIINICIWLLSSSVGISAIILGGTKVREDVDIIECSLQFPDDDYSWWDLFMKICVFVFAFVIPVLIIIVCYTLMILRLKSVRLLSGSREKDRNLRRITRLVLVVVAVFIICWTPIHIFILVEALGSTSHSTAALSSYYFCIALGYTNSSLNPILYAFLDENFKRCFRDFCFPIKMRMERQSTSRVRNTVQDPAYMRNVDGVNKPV", "sequence of UniProt P07711 (whole entry, looked up)": "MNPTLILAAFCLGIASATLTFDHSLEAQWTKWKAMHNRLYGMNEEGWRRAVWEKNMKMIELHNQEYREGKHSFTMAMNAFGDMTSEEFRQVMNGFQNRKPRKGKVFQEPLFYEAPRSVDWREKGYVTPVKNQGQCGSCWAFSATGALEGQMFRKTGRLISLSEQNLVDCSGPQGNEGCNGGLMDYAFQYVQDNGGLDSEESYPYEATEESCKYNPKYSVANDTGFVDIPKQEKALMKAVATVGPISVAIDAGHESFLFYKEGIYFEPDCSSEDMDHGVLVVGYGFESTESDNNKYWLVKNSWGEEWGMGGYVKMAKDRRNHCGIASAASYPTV", "sequence of UniProt P06239 (whole entry, looked up)": "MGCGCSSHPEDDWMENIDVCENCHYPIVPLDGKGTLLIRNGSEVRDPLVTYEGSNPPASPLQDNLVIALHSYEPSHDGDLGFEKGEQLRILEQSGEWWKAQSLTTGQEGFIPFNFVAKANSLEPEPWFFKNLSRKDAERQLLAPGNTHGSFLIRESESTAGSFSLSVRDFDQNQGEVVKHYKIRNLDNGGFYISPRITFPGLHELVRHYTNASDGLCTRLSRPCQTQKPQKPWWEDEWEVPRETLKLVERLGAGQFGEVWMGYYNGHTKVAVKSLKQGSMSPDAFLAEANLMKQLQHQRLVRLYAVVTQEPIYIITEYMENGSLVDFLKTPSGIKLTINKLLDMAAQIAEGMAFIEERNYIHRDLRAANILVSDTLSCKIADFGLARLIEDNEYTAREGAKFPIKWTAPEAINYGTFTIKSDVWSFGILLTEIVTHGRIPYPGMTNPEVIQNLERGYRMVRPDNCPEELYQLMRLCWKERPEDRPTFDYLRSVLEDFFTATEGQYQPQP", "sequence of UniProt P08173 (whole entry, looked up)": "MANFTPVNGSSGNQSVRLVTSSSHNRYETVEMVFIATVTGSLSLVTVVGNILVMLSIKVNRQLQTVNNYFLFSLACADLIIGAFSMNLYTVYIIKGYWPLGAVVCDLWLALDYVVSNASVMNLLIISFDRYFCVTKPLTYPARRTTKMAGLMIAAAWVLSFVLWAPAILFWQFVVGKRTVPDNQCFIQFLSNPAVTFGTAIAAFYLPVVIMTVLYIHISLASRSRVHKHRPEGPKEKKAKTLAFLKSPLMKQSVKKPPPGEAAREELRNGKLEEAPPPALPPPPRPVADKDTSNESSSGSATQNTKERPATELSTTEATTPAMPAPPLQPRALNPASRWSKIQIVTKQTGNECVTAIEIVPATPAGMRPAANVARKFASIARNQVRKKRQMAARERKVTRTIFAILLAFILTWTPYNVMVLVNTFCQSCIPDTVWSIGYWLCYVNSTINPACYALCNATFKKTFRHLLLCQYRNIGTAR"}
{"Compound": "CC(C)CC(=O)OC[C@H]1O[C@@](C#N)(c2ccc3c(N)ncnn23)[C@H](O)[C@@H]1O", "tested on": "ADRA2B (Homo sapiens, UniProt P18089)", "assay": "cell-free assay", "conditions": "20 µM", "measurement": "inhibition", "value": "2%"}
{"Compound": "Oc1cccc(N2[C@@H]3CC[C@H]2CN(CCCc2ccccc2)C3)c1", "tested on": "OPRD1", "assay": "cAMP, agonist", "measurement": "Emax", "value": "56.8%"}
{"Compound": "CC(C)[C@H](NC(=O)[C@H](COCc1ccccc1)NC(=O)CCc1ccccc1)C(=O)N[C@@H](CCCNC(=N)N)C(=O)c1nc2ccccc2s1", "tested on": "TMPRSS2", "assay": "enzyme activity, inhibitor", "conditions": "1 nM", "measurement": "activity vs control", "value": "76%"}
{"Compound": "COC(=O)c1cc(-c2cccc(NC(=O)Nc3c(C)cccc3C)c2)on1", "tested on": "Mycobacteroides chelonae", "assay": "microbial growth, broth dilution", "test system": "ATCC35752", "conditions": "48 h", "measurement": "MIC", "value": "> 64 µg/mL"}
{"Compound": "[2H]c1c([2H])c([C@]2([2H])CCCN2C(=O)C(C)(C)Oc2ccc3cn[nH]c3c2)c([2H])c([2H])c1C([2H])([2H])[2H]", "tested on": "LCK (Homo sapiens, UniProt P06239)", "assay": "binding, competition with immobilised ligand", "conditions": "1 µM", "measurement": "remaining binding", "value": "65%"}
{"Compound": "[2H][C@@](CCCNC(=N)N)(NC(=O)[C@H](Cc1ccccc1)NC(=O)[C@H](CCC(N)=O)NC(C)=O)C(=O)c1nc2ccccc2s1", "tested on": "TMPRSS2", "assay": "enzyme activity, inhibitor", "conditions": "1 nM", "measurement": "activity vs control", "value": "23%"}
{"Compound": "O=C1CCCC2C3CCCN4CCCC(CN12)C34 (stereo not drawn)", "tested on": "Procathepsin L (CTSL, Homo sapiens, UniProt P07711)", "assay": "enzyme activity, inhibitor", "conditions": "100 µM", "measurement": "remaining activity", "value": "107%"}
{"Compound": "N=C(N)NCCC[C@H](NC(=O)[C@H](Cc1ccc(O)cc1)NC(=O)[C@H](Cc1ccc(O)cc1)NC(=O)CCc1ccc(O)cc1)C(=O)c1nc2ccccc2s1", "tested on": "TMPRSS2", "assay": "enzyme activity, inhibitor", "conditions": "1 nM", "measurement": "activity vs control", "value": "83%"}
{"Compound": "O=C1C(c2ccccc2)=C(Nc2ccc([N+](=O)[O-])cc2)c2ccccc21", "tested on": "PFF0160c (Plasmodium falciparum, UniProt Q08210, E182D)", "assay": "enzyme activity, inhibitor, absorbance", "measurement": "IC50", "value": "> 10000 nM"}
{"Compound": "COc1cc(CCNC(C)c2ccccc2O)c(OC)cc1Br (stereo not drawn)", "tested on": "HTR2C (Homo sapiens, UniProt P28335)", "assay": "calcium signal, agonist", "measurement": "EC50", "value": "5.7 nM"}
{"Compound": "Nc1ncc(-c2nc(N3CCOCC3)nc(N3CCOCC3)n2)c(C(F)F)n1", "tested on": "Tyrosine-protein kinase ABL1, non-phosphorylated (ABL1, Homo sapiens, UniProt P00519, H396P)", "assay": "binding, competition with immobilised ligand", "conditions": "10 µM", "measurement": "remaining binding", "value": "60%"}
{"Compound": "COc1ncccc1-c1cnn2ccc(N3CCN(C(=O)OC(C)C)CC3)nc12", "tested on": "TLK1 (Homo sapiens, UniProt Q9UKI8)", "assay": "binding, competition with immobilised ligand", "conditions": "1 µM", "measurement": "remaining binding", "value": "97%"}
{"Compound": "CC(=O)N[C@@H](CCC(N)=O)C(=O)N[C@@H](Cc1ccccc1)C(=O)N[C@@H](CCNC(=N)N)CC(=O)c1nc2ccccc2s1", "tested on": "TMPRSS2", "assay": "enzyme activity, inhibitor", "conditions": "1 nM", "measurement": "activity vs control", "value": "99%"}
{"Compound": "Cc1ccc(N2CCc3c(-c4cc5cccnc5nc4C)cc(C)nc32)c(Cl)c1", "tested on": "PFF0160c (Plasmodium falciparum, UniProt Q08210)", "assay": "enzyme activity, inhibitor, absorbance", "measurement": "IC50", "value": "567 nM"}
{"Compound": "COC(=O)c1cc(-c2cccc(NC(=O)Nc3ccc(Cl)cc3)c2)on1", "tested on": "Klebsiella pneumoniae", "assay": "microbial growth, broth dilution", "test system": "BAA1705", "measurement": "MIC", "value": "> 64 µg/mL"}
{"Compound": "CC(C)[C@H](NC(=O)[C@H](Cc1ccc(O)cc1)NC(=O)[C@@H](N)Cc1ccc(O)cc1)C(=O)N[C@H](CCCNC(=N)N)C(=O)c1nc2ccccc2s1", "tested on": "TMPRSS2", "assay": "enzyme activity, inhibitor", "conditions": "1 nM", "measurement": "activity vs control", "value": "71%"}
{"Compound": "C[C@@H](O)[C@@H]1CN([C@H](Cc2ccc3ccccc3c2)CN2CCC[C@H]2CN2CCNC[C@@H]2Cc2ccc3ccccc3c2)CCN1CCc1ccc(Cl)c(Cl)c1", "tested on": "OPRK1 (Cavia porcellus, UniProt P41144)", "assay": "ligand displacement, radioligand", "conditions": "0.5 µM, pH 7.5", "measurement": "remaining binding", "value": "117%"}
{"Compound": "CCN(CC)CCCC[C@H](NC(=O)[C@H](CC(C)C)NC(=O)[C@H](C)NC(=O)[C@H](Cc1ccccc1)NC(=O)c1ccc(C(C)(C)C)cc1)C(=O)N[C@@H](CO)C(=O)OC", "tested on": "Bromodomain-containing protein 3, BD1 (BRD3, Homo sapiens, UniProt Q15059)", "assay": "thermal stability, DSF", "conditions": "25 µM", "measurement": "ΔTm", "value": "0.53 °C"}
{"Compound": "C#Cc1n[nH]c2c(-c3cn(C(C)c4ccccn4)c(=O)[nH]c3=O)cc(F)cc12 (stereo not drawn)", "tested on": "STK17A (Homo sapiens, UniProt Q9UEE5)", "assay": "enzyme activity, inhibitor", "conditions": "1 µM", "measurement": "inhibition", "value": "9.1%"}
{"Compound": "Cc1nn(C)cc1-c1nc2c(N3CCN(Cc4ccc(Cl)cc4)CC3)c(Cl)cnc2[nH]1", "tested on": "Tyrosine-protein kinase ABL1, phosphorylated (ABL1, Homo sapiens, UniProt P00519, F317L)", "assay": "binding, competition with immobilised ligand", "conditions": "1 µM", "measurement": "remaining binding", "value": "89%"}
{"Compound": "c1cncc([C@@H]2CCCN2)c1", "tested on": "OPRD1", "assay": "ligand displacement", "conditions": "50 µM", "measurement": "inhibition", "value": "-11%"}
{"Compound": "CCc1ccc(N2C(=O)/C(=C3/C(=O)N(C)c4ccc(Cl)cc43)NC2=S)cc1", "tested on": "MAL12 (Saccharomyces cerevisiae S288c, UniProt P53341)", "assay": "enzyme activity, inhibitor, absorbance", "conditions": "100 µM", "measurement": "inhibition", "value": "42.3%"}
{"Compound": "N=C(N)NCCCCC(=O)N[C@@H](CCC(=O)O)C(=O)N[C@@H](Cc1ccccc1)C(=O)N[C@@H](CCCNC(=N)N)C(=O)c1nc2ccccc2s1", "tested on": "TMPRSS2", "assay": "enzyme activity, inhibitor", "conditions": "1 nM", "measurement": "activity vs control", "value": "14%"}
{"Compound": "CN1CCC[C@H]1c1cccnc1", "tested on": "CHRM4 (Homo sapiens, UniProt P08173)", "assay": "ligand displacement", "conditions": "50 µM", "measurement": "inhibition", "value": "-7.23%"}
{"note": "For quick reference, copied from above:"}
{"Compound": "Nc1ncc(-c2nc(N3CCOCC3)nc(N3CCOCC3)n2)c(C(F)F)n1", "tested on": "Tyrosine-protein kinase ABL1, non-phosphorylated (ABL1, Homo sapiens, UniProt P00519, H396P)", "assay": "binding, competition with immobilised ligand", "conditions": "10 µM", "measurement": "remaining binding", "value": "60%"}
{"Compound": "C[C@@H](O)[C@@H]1CN([C@H](Cc2ccc3ccccc3c2)CN2CCC[C@H]2CN2CCNC[C@@H]2Cc2ccc3ccccc3c2)CCN1CCc1ccc(Cl)c(Cl)c1", "tested on": "OPRK1 (Cavia porcellus, UniProt P41144)", "assay": "ligand displacement, radioligand", "conditions": "0.5 µM, pH 7.5", "measurement": "remaining binding", "value": "117%"}
{"Compound": "c1cncc([C@@H]2CCCN2)c1", "tested on": "OPRD1", "assay": "ligand displacement", "conditions": "50 µM", "measurement": "inhibition", "value": "-11%"}
{"Compound": "Oc1cccc(N2[C@@H]3CC[C@H]2CN(CCCc2ccccc2)C3)c1", "tested on": "OPRD1", "assay": "cAMP, agonist", "measurement": "Emax", "value": "56.8%"}
